Measurements of several laboratories.
A part holds a random share of what one study measured. Values joined by “and” are separate records of one study, mostly repeats; a detail may differ.
Chain of UniProt P16591 (whole entry, looked up): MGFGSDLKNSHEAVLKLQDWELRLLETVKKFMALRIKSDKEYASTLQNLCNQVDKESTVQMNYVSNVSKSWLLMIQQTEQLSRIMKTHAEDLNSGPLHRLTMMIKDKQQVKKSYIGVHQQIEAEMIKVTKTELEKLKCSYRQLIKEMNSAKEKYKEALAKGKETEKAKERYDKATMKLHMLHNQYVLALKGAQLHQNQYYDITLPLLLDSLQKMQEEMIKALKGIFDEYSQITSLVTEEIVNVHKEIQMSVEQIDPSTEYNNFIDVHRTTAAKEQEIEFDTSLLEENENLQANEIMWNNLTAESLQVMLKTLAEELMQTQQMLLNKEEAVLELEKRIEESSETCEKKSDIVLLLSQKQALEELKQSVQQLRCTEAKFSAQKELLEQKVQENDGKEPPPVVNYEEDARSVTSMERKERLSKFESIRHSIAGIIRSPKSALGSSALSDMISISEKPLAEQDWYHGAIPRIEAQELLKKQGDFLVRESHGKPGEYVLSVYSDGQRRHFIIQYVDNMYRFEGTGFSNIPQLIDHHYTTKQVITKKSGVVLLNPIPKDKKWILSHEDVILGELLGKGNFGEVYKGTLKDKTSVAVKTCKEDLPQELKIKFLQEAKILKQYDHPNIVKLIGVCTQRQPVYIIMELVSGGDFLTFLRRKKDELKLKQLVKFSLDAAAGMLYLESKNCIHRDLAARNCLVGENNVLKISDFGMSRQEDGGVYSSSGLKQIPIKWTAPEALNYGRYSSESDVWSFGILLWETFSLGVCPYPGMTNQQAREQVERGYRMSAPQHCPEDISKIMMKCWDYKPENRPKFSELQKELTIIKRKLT
Chain of UniProt P51957 (whole entry, looked up): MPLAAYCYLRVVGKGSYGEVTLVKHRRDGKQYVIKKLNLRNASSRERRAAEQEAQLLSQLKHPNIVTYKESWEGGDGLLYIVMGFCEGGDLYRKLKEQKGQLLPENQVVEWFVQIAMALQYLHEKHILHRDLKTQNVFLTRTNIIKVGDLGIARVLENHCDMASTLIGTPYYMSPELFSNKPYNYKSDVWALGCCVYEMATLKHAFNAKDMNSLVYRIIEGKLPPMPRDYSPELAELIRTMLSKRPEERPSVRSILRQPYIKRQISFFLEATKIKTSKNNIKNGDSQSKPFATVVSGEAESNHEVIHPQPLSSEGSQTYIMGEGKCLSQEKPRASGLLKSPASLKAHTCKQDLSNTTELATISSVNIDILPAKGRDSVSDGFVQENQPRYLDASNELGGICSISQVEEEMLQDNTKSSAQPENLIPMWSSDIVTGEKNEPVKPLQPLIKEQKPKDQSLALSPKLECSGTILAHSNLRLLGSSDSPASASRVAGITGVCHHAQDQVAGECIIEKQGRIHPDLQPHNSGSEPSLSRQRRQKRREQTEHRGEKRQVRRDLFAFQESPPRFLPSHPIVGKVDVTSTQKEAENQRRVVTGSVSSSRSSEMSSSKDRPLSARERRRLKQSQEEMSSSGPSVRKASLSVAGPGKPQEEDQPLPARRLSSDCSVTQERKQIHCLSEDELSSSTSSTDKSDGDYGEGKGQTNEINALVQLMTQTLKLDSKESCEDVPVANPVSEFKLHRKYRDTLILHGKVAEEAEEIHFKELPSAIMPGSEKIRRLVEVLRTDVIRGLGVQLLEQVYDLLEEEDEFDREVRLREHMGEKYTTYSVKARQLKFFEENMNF
Chain of UniProt P52333 (whole entry, looked up): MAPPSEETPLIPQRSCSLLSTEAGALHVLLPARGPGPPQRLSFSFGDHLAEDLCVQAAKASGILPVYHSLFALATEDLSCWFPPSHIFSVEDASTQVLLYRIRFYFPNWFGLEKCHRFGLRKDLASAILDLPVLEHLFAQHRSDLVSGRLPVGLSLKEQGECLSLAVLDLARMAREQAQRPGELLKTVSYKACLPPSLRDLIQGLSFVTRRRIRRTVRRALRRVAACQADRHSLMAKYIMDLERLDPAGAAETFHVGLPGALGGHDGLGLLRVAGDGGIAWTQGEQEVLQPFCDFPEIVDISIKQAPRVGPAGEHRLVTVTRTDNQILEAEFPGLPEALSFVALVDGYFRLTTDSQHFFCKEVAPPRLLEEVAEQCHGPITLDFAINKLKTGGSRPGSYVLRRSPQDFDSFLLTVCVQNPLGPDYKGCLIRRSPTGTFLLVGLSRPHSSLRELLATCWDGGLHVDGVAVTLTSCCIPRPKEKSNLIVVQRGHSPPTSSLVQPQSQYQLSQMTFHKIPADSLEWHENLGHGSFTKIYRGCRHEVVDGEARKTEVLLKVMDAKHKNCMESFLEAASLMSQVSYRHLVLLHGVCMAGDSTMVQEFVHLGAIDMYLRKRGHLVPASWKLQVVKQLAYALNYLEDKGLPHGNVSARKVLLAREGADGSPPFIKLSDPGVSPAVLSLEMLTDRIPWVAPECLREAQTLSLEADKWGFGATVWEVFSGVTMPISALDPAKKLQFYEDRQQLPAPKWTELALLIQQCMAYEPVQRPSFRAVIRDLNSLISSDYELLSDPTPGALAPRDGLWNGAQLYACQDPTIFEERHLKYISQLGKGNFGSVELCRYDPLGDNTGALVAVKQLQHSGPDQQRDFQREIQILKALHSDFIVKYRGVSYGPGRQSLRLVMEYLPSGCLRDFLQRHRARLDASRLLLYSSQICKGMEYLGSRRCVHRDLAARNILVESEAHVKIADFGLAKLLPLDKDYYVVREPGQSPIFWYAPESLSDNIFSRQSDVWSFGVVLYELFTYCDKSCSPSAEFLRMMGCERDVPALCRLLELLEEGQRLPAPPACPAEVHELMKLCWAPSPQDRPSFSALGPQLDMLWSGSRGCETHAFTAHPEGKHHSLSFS

Sample 1
SMILES: CN(C)c1ncnc(-c2ccc3nc(Nc4cc(CN5CCN(C(=O)CC(F)(F)F)CC5)ccn4)[nH]c3c2)c1Cl
Read-out: cell-free assay
Technique: competition with immobilised ligand
Concentration: 1 µM
Quantity: remaining binding
target = Aurora kinase B (AURKB, Homo sapiens, UniProt Q96GD4); result = 85%
target = Tyrosine-protein kinase JAK3, JH1 (JAK3, Homo sapiens, UniProt P52333); result = 71%
target = NEK7 (Homo sapiens, UniProt Q8TDX7); result = 100%
target = FER (Homo sapiens, UniProt P16591); result = 100%
target = NEK4 (Homo sapiens, UniProt P51957); result = 84%
target = FLT3 (Homo sapiens, UniProt P36888); result = 71%

Sample 2
Target: Transcription factor Sp1 (SP1, Homo sapiens, UniProt P08047, residues 1-785, full length assumed)
Chain of UniProt P08047 (whole entry, looked up): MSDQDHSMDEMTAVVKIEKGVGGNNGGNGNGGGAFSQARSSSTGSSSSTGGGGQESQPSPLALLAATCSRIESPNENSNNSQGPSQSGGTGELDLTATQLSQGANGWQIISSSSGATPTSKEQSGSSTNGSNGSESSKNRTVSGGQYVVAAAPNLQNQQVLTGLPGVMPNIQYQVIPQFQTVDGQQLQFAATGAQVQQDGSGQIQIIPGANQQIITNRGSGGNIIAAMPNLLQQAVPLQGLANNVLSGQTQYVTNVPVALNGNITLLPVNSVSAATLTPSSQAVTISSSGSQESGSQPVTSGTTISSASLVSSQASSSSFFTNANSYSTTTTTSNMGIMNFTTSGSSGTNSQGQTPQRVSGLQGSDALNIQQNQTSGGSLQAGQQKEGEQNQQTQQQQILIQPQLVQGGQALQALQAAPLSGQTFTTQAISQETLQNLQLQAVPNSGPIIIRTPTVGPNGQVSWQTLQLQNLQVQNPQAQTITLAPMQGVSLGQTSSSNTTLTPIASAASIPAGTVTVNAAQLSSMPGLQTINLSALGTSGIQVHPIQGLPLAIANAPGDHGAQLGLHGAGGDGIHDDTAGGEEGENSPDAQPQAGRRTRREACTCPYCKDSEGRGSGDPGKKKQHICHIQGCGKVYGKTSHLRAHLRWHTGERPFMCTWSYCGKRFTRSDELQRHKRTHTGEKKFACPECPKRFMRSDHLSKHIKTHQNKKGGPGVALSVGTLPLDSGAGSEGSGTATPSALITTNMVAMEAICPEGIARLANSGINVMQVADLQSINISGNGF
Technique: protein-binding microarray
Form: double-stranded DNA, one strand shown
Matrix: in vitro
Concentration: not given
Setting: k-mer, scored over probes, only values ≥0.25
Reading: higher = stronger binding
Quantity: E-score
Sequence = ACATCCCC; result = 0.363
Sequence = ATACGCCC; result = 0.286
Sequence = CGAGGGGA; result = 0.284
Sequence = CGATCCCC; result = 0.258
Sequence = ACCCCATC; result = 0.311
Sequence = ATCCCCTC; result = 0.278
Sequence = ATACAACA; result = 0.268
Sequence = AGTTACAG; result = 0.264

Sample 3
Target: Calcium/calmodulin-dependent protein kinase type 1G (CAMK1G, Homo sapiens, UniProt Q96NX5)
Chain of UniProt Q96NX5 (whole entry, looked up): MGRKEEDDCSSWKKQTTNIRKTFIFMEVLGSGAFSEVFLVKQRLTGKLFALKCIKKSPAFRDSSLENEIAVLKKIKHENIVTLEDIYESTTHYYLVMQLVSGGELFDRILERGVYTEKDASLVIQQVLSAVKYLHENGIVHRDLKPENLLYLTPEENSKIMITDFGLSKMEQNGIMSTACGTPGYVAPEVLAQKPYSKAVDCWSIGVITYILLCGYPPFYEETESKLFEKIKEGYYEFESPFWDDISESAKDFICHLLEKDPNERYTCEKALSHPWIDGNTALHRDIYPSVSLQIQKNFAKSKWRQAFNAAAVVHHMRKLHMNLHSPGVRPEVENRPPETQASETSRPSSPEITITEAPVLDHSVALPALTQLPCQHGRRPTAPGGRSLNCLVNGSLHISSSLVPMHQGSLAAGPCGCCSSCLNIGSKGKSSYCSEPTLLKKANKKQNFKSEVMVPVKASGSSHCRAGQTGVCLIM
Read-out: enzyme activity
Action: inhibitor
Concentration: 0.5 µM
Relative to: control
Quantity: remaining activity
SMILES = CC(C)(C)c1nc2c3cc[nH]c(=O)c3c3cc(F)ccc3c2[nH]1; result = 95.3%
SMILES = COc1cc2c(N3CCN(C(=O)Nc4ccc(OC(C)C)cc4)CC3)ncnc2cc1OCCCN1CCCCC1; result = 94.6%
SMILES = O=c1c(-c2ccc(F)cc2)c(-c2ccncc2)[nH]n1-c1ccc(Cl)cc1; result = 104%
SMILES = Clc1ccc(Nc2nnc(Cc3ccncc3)c3ccccc23)cc1; result = 107%
SMILES = CC(C)N(CCC(=O)c1ccc2ccccc2c1)Cc1ccccc1; result = 95.1%
SMILES = O=Nc1c(-c2c(O)[nH]c3cc(Br)ccc23)[nH]c2ccccc12; result = 96%
SMILES = O=Nc1c(-c2c(O)[nH]c3ccccc23)[nH]c2ccccc12; result = 101%
SMILES = N#C/C(=C(/N)SC1C=CC=CC1)c1cccc(C(O)c2ccncc2)c1 (stereo not shown); result = 93.8%
SMILES = O=C(c1cc2cc(O)ccc2[nH]1)c1cc2cc(O)ccc2[nH]1; result = 101%
SMILES = c1cc(-c2cnn3cc(-c4ccc(OCCN5CCCCC5)cc4)cnc23)ccn1; result = 99.9%
SMILES = c1ccc(-c2n[nH]c3c2oc2ccccc23)cc1; result = 100%
SMILES = Nc1nc(Nc2ccc(S(N)(=O)=O)cc2)nn1C(=S)Nc1c(F)cccc1F; result = 95.9%
SMILES = C[C@@H](N)[C@H]1CC[C@H](C(=O)Nc2ccncc2)CC1; result = 99.3%
SMILES = Oc1cccc(-c2nc(N3CCOCC3)c3oc4ncccc4c3n2)c1; result = 99.2%
SMILES = N#CC(c1ccnc(NCCc2cccnc2)n1)c1nc2ccccc2s1 (stereo not shown); result = 92.3%
SMILES = N#Cc1cnc2cnc(NCc3cccnc3)cc2c1Nc1ccc(F)c(Cl)c1; result = 96.1%

Sample 4
Cell line: HaCaT
Concentration: 100 µM
Time: 36 h
Quantity: viability
SMILES = COc1cc2c(cc1O)CC[C@@H]1[C@@H]2CC[C@]2(C)[C@@H](O)CC[C@@H]12; result = 64.5%
SMILES = CCn1cc(C(=O)O)c(=O)c2cc(F)c(N3CCNCC3)nc21; result = 45.8% and 110%
SMILES = CO/N=C(\C(=O)N[C@@H]1C(=O)N2C(C(=O)O)=C(CSc3nnnn3C)CS[C@H]12)c1csc(N)n1; result = 126%

Sample 5
Species: human
Matrix: microsomes or S9
Concentration: 2 µM
Time: 0.5 h
Quantity: remaining compound
SMILES = COc1cc2[nH]c3c(=O)n(-c4ccccc4)ncc3c2cc1OC; result = 75.1%
SMILES = N#Cc1ccc(Oc2ccc(NC(=O)NCc3cc[nH]n3)cn2)cc1; result = 66.5%
SMILES = CN(CC(=O)N1CCCC1)Cc1cc(=O)n(C)c(=O)n1C; result = 96.5%
SMILES = CC(=O)Nc1ccc(Cl)c(C(=O)N(C)C(CO)C(C)(C)C)c1 (stereo not shown); result = 81.4%

Some of these lines once more (sample 1):
target = FER (Homo sapiens, UniProt P16591); result = 100%
target = FLT3 (Homo sapiens, UniProt P36888); result = 71%
target = NEK4 (Homo sapiens, UniProt P51957); result = 84%
target = NEK7 (Homo sapiens, UniProt Q8TDX7); result = 100%
